Results gathered from unrelated publications.
Every numbered part comes from another study and shows a few of its results, in no order.

Study 1
Target: Sal-like protein 4, full length isoform A (SALL4, Homo sapiens, UniProt Q9UJQ4, residues 1-1053)
Chain of UniProt Q9UJQ4 (whole entry, looked up): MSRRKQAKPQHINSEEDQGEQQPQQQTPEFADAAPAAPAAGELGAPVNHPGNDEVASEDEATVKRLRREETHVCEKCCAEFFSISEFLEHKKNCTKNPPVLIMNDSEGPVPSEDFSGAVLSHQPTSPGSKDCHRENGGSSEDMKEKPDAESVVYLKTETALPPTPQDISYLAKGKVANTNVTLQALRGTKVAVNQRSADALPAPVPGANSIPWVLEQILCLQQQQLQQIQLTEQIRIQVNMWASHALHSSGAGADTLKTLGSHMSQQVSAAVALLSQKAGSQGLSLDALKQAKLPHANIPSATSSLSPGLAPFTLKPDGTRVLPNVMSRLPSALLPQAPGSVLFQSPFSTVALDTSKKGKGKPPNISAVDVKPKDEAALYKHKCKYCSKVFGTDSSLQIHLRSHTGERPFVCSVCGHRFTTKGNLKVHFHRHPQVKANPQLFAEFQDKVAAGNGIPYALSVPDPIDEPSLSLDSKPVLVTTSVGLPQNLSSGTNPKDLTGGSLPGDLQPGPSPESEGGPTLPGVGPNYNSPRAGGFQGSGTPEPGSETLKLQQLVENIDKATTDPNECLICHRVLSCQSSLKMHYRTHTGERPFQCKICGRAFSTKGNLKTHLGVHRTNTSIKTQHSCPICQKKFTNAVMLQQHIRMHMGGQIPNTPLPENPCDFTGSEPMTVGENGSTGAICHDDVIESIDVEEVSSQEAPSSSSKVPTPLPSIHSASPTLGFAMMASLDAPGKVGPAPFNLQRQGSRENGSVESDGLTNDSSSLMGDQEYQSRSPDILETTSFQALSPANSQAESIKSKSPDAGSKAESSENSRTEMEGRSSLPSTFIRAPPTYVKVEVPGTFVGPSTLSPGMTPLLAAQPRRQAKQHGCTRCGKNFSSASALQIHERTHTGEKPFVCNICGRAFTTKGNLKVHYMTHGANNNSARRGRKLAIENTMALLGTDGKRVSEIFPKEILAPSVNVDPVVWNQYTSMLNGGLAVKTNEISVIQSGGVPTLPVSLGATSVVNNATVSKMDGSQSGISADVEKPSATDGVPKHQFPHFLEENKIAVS
Method: universal PBM
Form: double-stranded DNA, one strand shown
Sample: in vitro
Concentration: 600 nM
Setting: 8-mer, flanks averaged, mean of replicates
Direction: higher = stronger binding
Measurement: E-score
Oligonucleotide = TGTTCCAA; value = 0.121
Oligonucleotide = CGACGGGC; value = -0.198
Oligonucleotide = ATAATACA; value = 0.41
Oligonucleotide = ATGACACG; value = 0.0516
Oligonucleotide = ATGTTTCA; value = 0.253
Oligonucleotide = ACCCATGG; value = -0.337
Oligonucleotide = ATAGGCAC; value = 0.0732
Oligonucleotide = AACCCGGC; value = -0.312

Study 2
Target: Histone acetyltransferase KAT6A, winged helix 2, GST fusion (KAT6A, Homo sapiens, UniProt Q92794, residues 85-181)
Method: protein binding microarray
Form: double-stranded DNA, one strand shown
Sample: in vitro
Concentration: not given
Setting: 8-mer, flanks averaged, mean of 2 arrays, mostly near background
Reference: not given
Direction: higher = stronger binding
Measurement: E-score
Residues (chain): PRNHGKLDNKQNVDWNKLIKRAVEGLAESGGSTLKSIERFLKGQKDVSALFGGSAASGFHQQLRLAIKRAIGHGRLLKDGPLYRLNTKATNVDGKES
Oligonucleotide = CACGTGAC; value = -0.337
Oligonucleotide = TAGGTGGA; value = 0.00202
Oligonucleotide = AACCTAGT; value = -0.0369
Oligonucleotide = GTCAAGTA; value = -0.191
Oligonucleotide = ATGGCTGA; value = 0.0482
Oligonucleotide = ATATCTGA; value = -0.0263
Oligonucleotide = CATCCCGG; value = 0.0899
Oligonucleotide = TAAATAGA; value = -0.102

Study 3
Target: Replicase polyprotein 1ab, polymerase (rep, Severe acute respiratory syndrome coronavirus 2, UniProt P0DTD1)
Observed: enzyme activity
Mode: inhibitor
Concentration: 20 µM
Measurement: inhibition
SMILES = COc1c(C)c2c(c(O)c1C/C=C(\C)CCC(=O)O)C(=O)OC2; value = 19.6%
SMILES = O=C(O)c1ccccc1-c1ccc(C(F)(F)F)cc1; value = 3.33%
SMILES = O=C(NCCCN1CCOCC1)c1cnn2c(-c3ccccc3)cc(-c3ccccc3)nc12; value = -0.69%
SMILES = NC(N)=Nc1ccc(Cl)cc1; value = 12.7%
SMILES = O=C(Nc1ccc(CN2CCOCC2)cc1)c1ccc(-c2cccc(Cl)c2)o1; value = -4.97%
SMILES = Oc1ccc(OC2CCCCO2)cc1 (stereo not shown); value = -4.5%
SMILES = CN1C(=O)C(F)=C[C@]2(C)[C@H]3CC[C@]4(C)[C@@H](C(=O)NCc5nc6cccnc6[nH]5)CC[C@H]4[C@@H]3CC[C@@H]12; value = -3.39%
SMILES = CCC(=N\O)/C(C)=C/c1ccc(F)cc1; value = -1.49%
SMILES = CCCCOC(=O)c1ccccc1Nc1cccc(C(F)(F)F)c1; value = 0.67%
SMILES = CCCCCCCCCCCCCCCCCCOP(=O)([O-])OC1CC[N+](C)(C)CC1; value = -7.57%
SMILES = C=CC(=O)Nc1cc(Nc2nccc(-c3cn(C)c4ccccc34)n2)c(OC)cc1N(C)CCN(C)C; value = 15.8%
SMILES = Oc1ccc(Nc2nc(-c3ccc(Cl)cc3)cs2)cc1; value = -2.28%
SMILES = CC(O)(C(=O)Nc1ccc(S(=O)(=O)c2ccccc2)cc1)C(F)(F)F (stereo not shown); value = 2.48%
SMILES = C[C@]12CCC(=O)C[C@@H]1CC[C@@H]1[C@@H]2CC[C@]2(C)[C@@H](O)CC[C@@H]12; value = -0.47%
SMILES = CC(C)c1ccc(-c2cc(=O)c3ccccc3o2)cc1; value = -4.58%
SMILES = CCOC(=O)Nc1ccc(NCc2ccc(F)cc2)nc1N; value = -2.61%
SMILES = CCCc1nc(C)c2c(O)nc(-c3cc(S(=O)(=O)N4CCN(CC)CC4)ccc3OCC)nn12; value = -4.6%
SMILES = CC(C)(C)[C@]1(O)C[C@@H]2OC(=O)C[C@@]23C(=O)O[C@@H]2OC(=O)[C@H](O)[C@]213; value = 0.91%
SMILES = COc1cc2nc(N3CCCN(C)CC3)nc(NC3CCN(Cc4ccccc4)CC3)c2cc1OC; value = 13.7%
SMILES = CCOC(=O)C1=C(C)NC(c2ccccc2)=C(C(=O)OCc2ccc([N+](=O)[O-])cc2)C1C#Cc1ccccc1 (stereo not shown); value = 2.45%
SMILES = COCCCN1CCC(NC(=O)c2cc(Cl)c(N)c3c2OCC3)CC1; value = -6.15%
SMILES = O=C(/C=C/c1cccc(S(=O)(=O)Nc2ccccc2)c1)NO; value = -7.1%
SMILES = Cc1ccccc1N1C(=O)c2cc(S(N)(=O)=O)c(Cl)cc2NC1C (stereo not shown); value = 3.28%
SMILES = Nc1nccc(-c2ccc3noc(-c4ccc(Cl)cc4)c3c2)n1; value = -1.99%
SMILES = N=C(N)NC(=N)NCCc1ccccc1; value = 25.4%

Study 4
Target: RNA binding protein fox-1 homolog 2, RRM domain, GST-SBP tag (RBFOX2, Homo sapiens, UniProt O43251-10, residues 100-194)
Method: RNA Bind-n-Seq
Form: RNA
Sample: in vitro
Concentration: 365 nM
Setting: natural RNA segment, single round, ends assumed
Reference: no-protein control
Direction: higher = stronger binding
Measurement: RBNS enrichment (R)
Constant ends, left off below: GGGAGUUCUACAGUCCGACGAUC … UGGAAUUCUCGGGUGCCAA
Construct (chain): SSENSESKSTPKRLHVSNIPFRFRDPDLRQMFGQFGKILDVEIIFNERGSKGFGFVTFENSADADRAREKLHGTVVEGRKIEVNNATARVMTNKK
Oligonucleotide = GCUUGUAUAUAUAUUUUUAAAAAUCUACCUGUUCCUGACUUAAAACAAAAGGAAAGAAACUACCUUUUUAUAAUGCACAACUGUUGAUGGUAGGCUGUAUAGUUUUUAGU; value = 0.923
Oligonucleotide = ACACAUAUGCAAUGUUUUAAGGUCUGUCUUAAGAAGCUUUGGCCAAAUUGGGAUCCUAACCUAAGAUGCCUUAAACUUAUUAACAUGACCAUUAUAAGAAAAGAUAUAUG; value = 0.325
Oligonucleotide = CGAAGAAAAAGAAAAUAAAAUGUAUAGGCAGGGUUCCUUCAAUUGGCAUUUUCCCCAGAAUUGUGAGCCAAAGCCUAUAGUAAUUGCAGACAGCAAAUGAUUCCGGAUCU; value = 0.414
Oligonucleotide = CUUCUAUUUAUUUAACAUCGAGGGUUGGGGGAGGGGUUGGUCCUGCCCUCGGCUGGAGUUCCUUUCUCACCCCUGUGAUUUGGAGGUGUGGAGAAGGGGAAGGGAGGGAC; value = 0.641
Oligonucleotide = AGAAUUGUGAUCUUCACCUUCUAAUUGAUUCUUUUUAAAAAAAGAAUUCCUAUAUUUUCAGUGGAUUCAAACUCUUUCUGAGGUUUUAAUGCGUGAAAGGAGCAGAGAAA; value = 0.531
Oligonucleotide = GAUUAGAGCCGCAUAAUAUCCCUCUCUUGGCUAUUGAAUAAGUGGUUCACAUACCCAACCCUGUAGAAGUUAGAAGAUGGUCGGUCAUGUCUGUAUGUUCUUGUUUGCAU; value = 3.57
Oligonucleotide = UAUUUUGUUGCAAGUUUGUGAGGGGAAAAUGUUUUGGUUUGUUUCUACUGACCUGAAUGUGUUGGAUCUACACGUGUUGUUUUGUUUUUGCUUUAUUGAUGCACGGAUGC; value = 0.867
Oligonucleotide = GGUGACAUAUGUGCUUGUGGGCCACAGCUGGAGGAUGGCAAGCUUUCUGUUGUCCUCUGCCUAUGUGGAGUUGACAGGGUUUGGCCUGCAGAUGUGUCUGGACUUGAGCC; value = 1.01

Study 5
Target: Replicase polyprotein 1ab, main protease (rep, Severe acute respiratory syndrome coronavirus 2, UniProt P0DTD1)
Observed: enzyme activity
Mode: inhibitor
Concentration: 20 µM
Setting: primary screen
Measurement: inhibition
SMILES = O=C(CCl)c1ccccc1; value = 99.9%
SMILES = O=C(O)C(=O)CBr; value = 78.9%
SMILES = Cc1coc2c1C(=O)C(=O)c1c-2ccc2c(C)cccc12; value = 27%

Excerpt of the above (study 4):
Oligonucleotide = GCUUGUAUAUAUAUUUUUAAAAAUCUACCUGUUCCUGACUUAAAACAAAAGGAAAGAAACUACCUUUUUAUAAUGCACAACUGUUGAUGGUAGGCUGUAUAGUUUUUAGU; value = 0.923
Oligonucleotide = ACACAUAUGCAAUGUUUUAAGGUCUGUCUUAAGAAGCUUUGGCCAAAUUGGGAUCCUAACCUAAGAUGCCUUAAACUUAUUAACAUGACCAUUAUAAGAAAAGAUAUAUG; value = 0.325
Oligonucleotide = CGAAGAAAAAGAAAAUAAAAUGUAUAGGCAGGGUUCCUUCAAUUGGCAUUUUCCCCAGAAUUGUGAGCCAAAGCCUAUAGUAAUUGCAGACAGCAAAUGAUUCCGGAUCU; value = 0.414
Oligonucleotide = CUUCUAUUUAUUUAACAUCGAGGGUUGGGGGAGGGGUUGGUCCUGCCCUCGGCUGGAGUUCCUUUCUCACCCCUGUGAUUUGGAGGUGUGGAGAAGGGGAAGGGAGGGAC; value = 0.641
Oligonucleotide = AGAAUUGUGAUCUUCACCUUCUAAUUGAUUCUUUUUAAAAAAAGAAUUCCUAUAUUUUCAGUGGAUUCAAACUCUUUCUGAGGUUUUAAUGCGUGAAAGGAGCAGAGAAA; value = 0.531
Oligonucleotide = GAUUAGAGCCGCAUAAUAUCCCUCUCUUGGCUAUUGAAUAAGUGGUUCACAUACCCAACCCUGUAGAAGUUAGAAGAUGGUCGGUCAUGUCUGUAUGUUCUUGUUUGCAU; value = 3.57
Oligonucleotide = UAUUUUGUUGCAAGUUUGUGAGGGGAAAAUGUUUUGGUUUGUUUCUACUGACCUGAAUGUGUUGGAUCUACACGUGUUGUUUUGUUUUUGCUUUAUUGAUGCACGGAUGC; value = 0.867
